Results collected from several papers.
Every numbered part comes from another study and shows a few of its results, in no order.

Block 1
Target: Phosphate system positive regulatory protein PHO4, full length, GST-tagged (PHO4, Saccharomyces cerevisiae, UniProt P07270, residues 1-312)
Technique: competition protein-binding microarray
Molecule type: double-stranded DNA, one strand shown
Sample: in vitro
Tested at: 2 µM
Setting: whole 60-bp probe, lowest competitor level
Together with: Cbf1 competitor, 0.05 µM
Reading: higher = stronger binding
Shared flanks, not repeated: … GTCTTGATTCGCTTGACGCTGCTG
Target sequence (chain): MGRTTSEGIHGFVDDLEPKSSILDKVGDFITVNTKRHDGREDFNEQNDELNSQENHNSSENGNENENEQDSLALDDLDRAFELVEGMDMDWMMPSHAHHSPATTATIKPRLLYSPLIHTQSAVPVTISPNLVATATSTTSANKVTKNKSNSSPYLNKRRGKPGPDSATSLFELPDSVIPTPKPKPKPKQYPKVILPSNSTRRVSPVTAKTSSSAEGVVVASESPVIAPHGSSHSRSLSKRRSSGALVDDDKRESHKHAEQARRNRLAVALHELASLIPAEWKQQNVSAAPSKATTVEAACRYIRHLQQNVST
With `CTTCTGTAAATTTGTCACGCAACTTGACGCGCCCCG` the fluorescence intensity was 4610 a.u.
`GATATGTTTCTAATGCGCGTGTGAAGGGAATTTCGG` has a fluorescence intensity of 10400 a.u.
The fluorescence intensity of `CGTCCTAGTGATTTTCACGTGTCCTCCATGAGGAAG` is reported as 13500 a.u.
`AAATTACTAAGTTGCGCAGTGGGTGACGCCGTATGA` gave a fluorescence intensity of 4110 a.u.
For `GAGGCTTGGCAGTTCCACGTGGAAGACCTGACGGAG`, the fluorescence intensity was 15700 a.u.
With `ATCTAATTGAACATTCTCGTGCGATTAAACGTCATT` the fluorescence intensity was 7830 a.u.

Block 2
Target: Sal-like protein 4, full length isoform B (SALL4, Homo sapiens, UniProt Q9UJQ4-2, residues 1-616)
Technique: universal PBM
Molecule type: double-stranded DNA, one strand shown
Sample: in vitro
Tested at: not given
Setting: 8-mer, flanks averaged, mean of replicates
Reading: higher = stronger binding
For `GCAGAAGC`, the E-score was -0.0806.
The E-score of `AAATGTGA` is reported as 0.203.
`AGCCTCAC` has an E-score of -0.21.
For `CCAGTGAG`, the E-score was -0.293.
`AACACGTG` has an E-score of 0.082.

Block 3
Target: Histone acetyltransferase KAT6A, winged helix 1, GST fusion (KAT6A, Homo sapiens, UniProt Q92794, residues 1-85)
Technique: protein binding microarray
Molecule type: double-stranded DNA, one strand shown
Sample: in vitro
Tested at: not given
Setting: 8-mer, flanks averaged, mean of 2 arrays, mostly near background
Reference: not given
Reading: higher = stronger binding
Target sequence (chain): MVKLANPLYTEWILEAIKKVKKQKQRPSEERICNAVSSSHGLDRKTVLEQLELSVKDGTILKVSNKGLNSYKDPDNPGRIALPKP
`CCTCCCAC` gave an E-score of -0.0815.
`AGGTTAAC` has an E-score of 0.103.
With `AGAATCAA` the E-score was -0.0858.
The E-score of `ACCCTGAT` is reported as -0.169.
The E-score of `ACTTAGAT` is reported as -0.197.
For `CCTGACTA`, the E-score was -0.119.
With `GGCGGACC` the E-score was 0.365.

Mixed results
`PhoQ, residues 284 288 289 292 302 303 SLANKL` has a fold induction of 5.51 (PhoP, residues 12 14 15 18 19 SQCLL (Escherichia coli, UniProt P23836); Sort-seq, refers to: YFP reporter; E. coli; PhoQ-PhoP variant library, together with: 10 µM Mg2+; reference: high Mg2+ state, higher = stronger signaling).

For quick reference, copied from above (block 1):
With `CTTCTGTAAATTTGTCACGCAACTTGACGCGCCCCG` the fluorescence intensity was 4610 a.u.
The fluorescence intensity of `CGTCCTAGTGATTTTCACGTGTCCTCCATGAGGAAG` is reported as 13500 a.u.
With `ATCTAATTGAACATTCTCGTGCGATTAAACGTCATT` the fluorescence intensity was 7830 a.u.
